Measured values from different studies.
A part holds a random share of what one study measured.

Sample 1
Target: RING finger protein unkempt homolog, zinc fingers 1-6, GST-SBP tag (UNK, Homo sapiens, UniProt Q9C0B0, residues 30-357)
Method: RNA Bind-n-Seq
Form: RNA
Matrix: in vitro
Tested at: not given
Setting: RNA with constant flanks, ends assumed
Baseline: input RNA pool
Reading: higher = stronger binding
All sequences stand within: GGGAGUUCUACAGUCCGACGAUC … CAACAGAGGAUUGAGCAUCA
Construct (chain): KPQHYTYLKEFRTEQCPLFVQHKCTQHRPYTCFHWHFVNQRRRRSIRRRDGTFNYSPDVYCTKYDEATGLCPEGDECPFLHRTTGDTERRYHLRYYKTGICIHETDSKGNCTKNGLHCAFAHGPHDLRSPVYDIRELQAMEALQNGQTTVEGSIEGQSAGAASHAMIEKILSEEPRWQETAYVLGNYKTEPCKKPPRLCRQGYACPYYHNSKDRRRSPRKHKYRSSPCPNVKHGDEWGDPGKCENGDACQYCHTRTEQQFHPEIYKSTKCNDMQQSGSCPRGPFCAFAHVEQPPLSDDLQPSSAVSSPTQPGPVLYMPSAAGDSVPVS
| Oligonucleotide | bound/input enrichment [ratio] |
| --- | --- |
| UAAUUUAAAAGAAUUACUAAUUCCCCUACCCCCAUCUGUGCUGAGGACAUUUCCCAGCCCCCGCUGGGGGAAAACAGCAUUUUCUUGAAGUGUGUGGCAUUAUCAAUGGGGAUUCAAAGU | 0.373 |
| UAAUAUUUUUGUGAACUGGUGUAAAUUGUUAAUGCAUAUAAGCUUGUGUAUUUUUGUAAACCGUUUUGUGAUUUAUUUCUUGCCCCAUAUGUAAAUAUUUAGAGUCUCAUUUCUUGCAAA | 0.573 |
| UAGAUAAUUCUUUUUAUUUUUUAUUUUUCCUUUCCCUCAAUCCUUUUUUAUUUUUAAAAACCGUUCUUUUGUAAUGUGGUGUUCAAAAUGAAAAUUGAAUACUGGCACUCCAUCUCUUAG | 127 |
| GAUAUAAAGACUAUAUUUUCUGAAUUUAUCACAAUCGAAAUGUUAUUUCACGGCAAAGCUUCCGAGGUCUACACUGCUGCCUACCAGAAUAUACAAAACAUUGAUGAAGAUGAAGAUUUA | 0.391 |
| CAGAUCCGAUGCCUCUGCCAGCGUGGGGCUGAGGUCACUGUGGUACCCUGGGACCAUGCACCCGACAGCCAAGAGUAUGAGGGUCUCUUCUUAAGUAAUGGGCCUGGUGACCCUGCCUCC | 0.106 |
| AACAGUUUUCAGAAGUUCUUAAGGCAAGAGUGAAUUUCUGUGGAUUUUACUGGUCCCAGCUUCCGGUUCUUUACGACACUAACAGGACUGCAUAGAGGCUUUUUCAGCAUUACUGUAUUG | 0.301 |
| UCAGCUUCGGUGGACUGCUCCUCUGAUUUCUAAGCCUCCAAUUGGGCCUCUUUGAUACAAACCGAAGUCAGGUAUGUGACUUAAAUACUAAAAAUAUUAAUAUUCCCGUUUGAAUUCGAU | 0.361 |
| ACUAUUGGAUUUAAUGUGGAGACGGUGACAUACAAAAAUCUCAAAUUCCAAGUUUGGGACUCCGGAGGACAGACAAGUAUCAGGCCAUACUGGAGAUGUUAUUAUUCAAACACAGAUGCA | 0.287 |
| UUGAAUGAUUUUGGCUUCAUGAUCUUUCACUCACCAUAUUGUAAACUGGUUCAGAAAUCUCCCGCUCGGAUGUUGCUGAAUGACUUCCUUAAUGACCAGAAUAGAGAUAAAAAUAGUAUC | 6.24 |
| UCUCCAUCUUGUUACAUUCCACUGCGGAGACUACAGGAUUUGGCCUCCAUGAUCAAUGCCGAGUAUUUAAAUGGGUCUGCUGAUGGAUCAGAAUCCUUUCAAGACCCUGAAAAAAGUGAU | 0.0871 |
| CACCGGUCCCCUCACAUCCCGUAUAAGUUGCUGCACCUGGUGUGGACCCACGCGAGGCACCCCGCAGGCUACGAGCAGCAGGACGCCCACGAGUUCCUCAUCGCGGCCCUGGACGUGCUC | 0.118 |

Sample 2
Target: Histone acetyltransferase KAT6A, winged helix 2, GST fusion (KAT6A, Homo sapiens, UniProt Q92794, residues 85-181)
Method: protein binding microarray
Form: double-stranded DNA, one strand shown
Matrix: in vitro
Tested at: not given
Setting: 8-mer, flanks averaged, mean of 2 arrays, mostly near background
Baseline: not given
Reading: higher = stronger binding
Target sequence (chain): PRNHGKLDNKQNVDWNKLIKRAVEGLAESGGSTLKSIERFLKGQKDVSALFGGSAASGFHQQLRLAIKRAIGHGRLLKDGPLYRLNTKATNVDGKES
| Oligonucleotide | E-score |
| --- | --- |
| GTGTACAA | 0.0121 |
| ACAGACGC | 0.0144 |
| ACATCTCA | -0.102 |
| GGCCGTAA | 0.144 |
| CGGCGTAA | -0.0424 |
| AAGTTTAA | -0.0641 |
| AATAGGAA | -0.0508 |
| GCTTGTAA | 0.0814 |
| CCCGGGGA | 0.06 |
| CGCGCTAC | 0.0212 |
| AGGTCTAG | -0.108 |
| ATGACATA | -0.0313 |
| TACAACTA | -0.038 |
| ACTTCAGC | 0.0106 |
| ACCCCTTC | -0.209 |
| CGAACGAC | 0.0895 |
| GGCTGGGA | -0.00497 |
| AACCTTCT | 0.072 |
| CAAGGTCG | -0.0355 |
| AATGCTTC | 0.0987 |
| AATAATTC | 0.159 |
| CCTGCGAC | 0.0716 |
| AATTGGCA | -0.117 |
| CTGTCGTA | -0.0507 |
| AACACACC | 0.0814 |

Sample 3
Target: Interferon regulatory factor 7, full length, phosphomimetic (IRF7, Homo sapiens, UniProt Q92985, residues 1-503, S101K/S471D/S472D/S475D/S476D/S477D/S483D/S484D/S487D)
Chain of UniProt Q92985 (whole entry, unmodified, looked up): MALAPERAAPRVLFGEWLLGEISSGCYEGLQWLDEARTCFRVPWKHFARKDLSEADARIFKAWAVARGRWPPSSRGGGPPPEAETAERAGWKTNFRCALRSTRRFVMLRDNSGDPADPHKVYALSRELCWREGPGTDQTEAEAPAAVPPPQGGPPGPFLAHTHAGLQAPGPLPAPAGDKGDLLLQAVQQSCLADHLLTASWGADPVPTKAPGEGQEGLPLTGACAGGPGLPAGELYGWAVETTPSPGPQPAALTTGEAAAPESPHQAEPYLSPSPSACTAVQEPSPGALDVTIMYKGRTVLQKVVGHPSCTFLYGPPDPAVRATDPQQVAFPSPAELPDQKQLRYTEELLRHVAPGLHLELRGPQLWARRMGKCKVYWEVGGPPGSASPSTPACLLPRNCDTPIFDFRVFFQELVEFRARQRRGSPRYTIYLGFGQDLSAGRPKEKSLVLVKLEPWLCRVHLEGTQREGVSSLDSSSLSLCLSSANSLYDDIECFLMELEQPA
Method: protein-binding microarray
Form: double-stranded DNA, one strand shown
Matrix: in vitro
Tested at: 250 nM
Setting: 60-bp whole probe
With: salmon DNA 0.4 mg/ml
Baseline: random background probes
Reading: higher = stronger binding
All sequences stand within: GCCTAGCAC … GTCTTGATTCGCTTGACGCTGCTG
| Oligonucleotide | log fluorescence |
| --- | --- |
| CACGATCTCAGACTGGAGACGTGCTAG | -0.109 z-score |
| GACTGTTTCGGTCTCGGGACGTGCTAG | 3.48 z-score |
| TTAGGTATCGGGTATCGGTTTGTGCTA | 3.55 z-score |
| TCAAGTCTGAGATCCAGACTGTGCTAG | -0.418 z-score |
| TTAGGTTTCGGTTTCGGTCAGTGCTAG | 14.2 z-score |
| GACGGTCTCCTTTTACTGACGTGCTAG | 1.8 z-score |
| TTAGGTATCGGGACTGTGTTAGTGCTA | -0.0372 z-score |
| TCAACTCCCCAACTCGCACTGTGCTAG | -0.298 z-score |
| TTAGGACTGGACACTCGGTTAGTGCTA | -0.656 z-score |
| GTTTCTTTTCTTTTCTTTTTGTGCTAG | 7.03 z-score |
| GACGGTATCAGGTATCGGGACGTGCTA | -0.0341 z-score |
| CTAGATCTCAGTTTCGATTAGTGCTAG | 8.68 z-score |
| TTAGGTTTCTACACTGGGTTAGTGCTA | 0.6 z-score |
| TTTTGCTTTCTTTTATGCTCGTGCTAG | 1.13 z-score |
| TTAGGTTTCGTTTTCGGTTAGTGCTAG | 14.2 z-score |
| TTAGGTATGGGACTGGGTTAGTGCTAG | -0.143 z-score |
| GACGGTTTCCTGCTCCTGACGTGCTAG | 0.902 z-score |
| TAAGGTTTCCTTATCCTTTAGTGCTAG | 3.07 z-score |
| GTCCCCTGTCGGGAGGTCAGGTGCTAG | 1.73 z-score |
| GATGGTTTCCTTCTCCTGACGTGCTAG | 2.72 z-score |
| TATGTTCCTTATTTAAGACCGTGCTAG | 2.49 z-score |
| GACGGGTTCCTTTTCCTGACGTGCTAG | 1.98 z-score |
| TATTTTCTGAATGTCTTCCCGTGCTAG | 2.95 z-score |
| TTAGGTATCGGTCTGGGTTAGTGCTAG | 0.588 z-score |

Sample 4
Target: RNA binding protein fox-1 homolog 2, RRM domain, GST-SBP tag (RBFOX2, Homo sapiens, UniProt O43251-10, residues 100-194)
Method: RNA Bind-n-Seq
Form: RNA
Matrix: in vitro
Tested at: 365 nM
Setting: natural RNA segment, single round, ends assumed
Baseline: no-protein control
Reading: higher = stronger binding
All sequences stand within: GGGAGUUCUACAGUCCGACGAUC … UGGAAUUCUCGGGUGCCAA
Target sequence (chain): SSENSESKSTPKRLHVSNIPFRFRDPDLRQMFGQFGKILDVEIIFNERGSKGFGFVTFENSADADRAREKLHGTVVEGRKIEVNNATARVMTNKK
| Oligonucleotide | RBNS enrichment (R) |
| --- | --- |
| CAGGUUACUUCUCUCCGCAGGGGCUGAAGACAGAUGUGUCAGCCCAUGGGAACCAGCCUGGGCCCUAGUGGAGGGUCCUGGUAGCUGCAGACCAGAGCCUCACACCUCUG | 0.453 |
| UUCAUCUGGGUGGUCCAGAUAGUAAAGCGCUUUUAUUUCUGGAGCUGGGGAAGCAGAUGACUCUUCCACUGGGGCGGAAGGGGCACCCACUGUGUCCCGAAGGGGCAGUC | 0.525 |
| UUGCAAACCCACAGAGUUUAGGCUGGUGCUGCCAAAAAGAAAAGCAACAUAGAGUUUAAGUAUCCAGUAGUGAUUUGUAAACUUGUUUUUCAUUUGAAGCUGAAUAUAUA | 0.437 |
| AUCAUUGUCUGUUAAUAAUGUAUAAAAUGGCUAUCUUGUAAGUGUGCUGUCUUGGUACUAGUGUAGUGACUUUUUUUCUCCUCUUCUAGUACAUAUUGAUAGGUAUAAUG | 0.37 |
| UAGUCAUGUGACCUGAGCGUUUGCAUACAUACACUUUUUUUUAUUAUGAAGAAUGGGUACUUCUGGAUUCCAGGAAAAAUUCUUAUAACUAAAAUCAAUAUGUUUUAAAA | 0.493 |
| UUUUUUUCAAUACUGUAUAAAAAUAGUAUUCUGAUUACCUCCCCCUCAAUAAAAAAAAAGUCCAGAUAAUUGCUUUUGAUAUUGAUGGAAAAACUACAAAACAGACACAA | 0.493 |
| CCCCCAAGCCCUGAGUUUGCACCGAAGUCCUGAAUCAGAUCCUCAGAGCCCGGAGUUUGAAUCCCAGAGUCCUAAGUAUGAGCCCCGAAGCCCUGGCUGCCAUCCCAGGA | 0.501 |
| UAAAACUGUAAUUUGAUUCACAUCUUUUCAAAUGGAGUUGGAGUUGAUUCAUAUUACAAUAUUUGUGUGCAAAAUGUGUAUGUUUUUCAGUUUAAAGUCAUGUUUUUAAA | 0.586 |
| AACUUUGUAACUUAUUGUAGUUAGAAAUUGUAACUUUGAUAUUGAAUUCUCUUGCCUUCAACAAGCACACUGACAGAGAAAAAAUGCUACUGUCUGUUGGUUCCAAUAUU | 0.267 |
| GGAUGGCCUCUACGCUGUUCCAUCACAGUCUCCAACUAAGGCUUAUGGUAUUUCAUUAAACUGUUGCAUACCCAGUUAGCACAGUAGGUGGGGAGUCUGCUUCAUUUCUA | 0.353 |
| GGUGUUUAAGUGUUCUGAUAACCUGCUUUUAAUAGUUGUGUAUGCCAAAGUCUUUCCCAGCACCUCUUGUAUUCAUUAUCAAAUAUAUACAUGUAAGUUUGAAGUAUUAC | 0.474 |
| CUGUGCAGGAAAAAGGUUUUAUUCUCUCCUGGCAUACAUUAGAAUGUCAGAUGCUUGCAUCCAUGUGGACCACGAUGGGCCUCUAAAAAUUGGUGGGCAGGGGGUUUGCU | 1.44 |

Excerpt of the above (sample 2):
| Oligonucleotide | E-score |
| --- | --- |
| TACAACTA | -0.038 |
| ACTTCAGC | 0.0106 |
| ACCCCTTC | -0.209 |
| CGAACGAC | 0.0895 |
| GGCTGGGA | -0.00497 |
| AACCTTCT | 0.072 |
| CAAGGTCG | -0.0355 |
